{"data": "Published values collected from several papers", "note": "Lines come from different studies, so protocols differ. Numbers after ± are the reported error."}
{"Structure (SMILES)": "O=c1nc(NO)ccn1[C@@H]1O[C@H](CO)[C@@H](O)[C@H]1O", "test": "microdialysis", "system": "pregnant rat, blood, fetus, placenta, amniotic fluid", "setting": "iv, 100 mg/kg of molnupiravir, added: NBMPR 10 mg/kg", "scale": "baseline: molnupiravir alone", "measurement": "biotransformation and biodistribution", "value": "no effect"}
{"Structure (SMILES)": "CC[C@H](C)[C@H](NC(=O)[C@@H](N)CCCNC(=N)N)C(=O)N[C@H](C(=O)N1CCC[C@H]1C(=O)N[C@@H](C)C(N)=O)C(C)C", "system": "human, plasma", "setting": "intravenous, 3 mg/kg, single dose, healthy volunteers", "measurement": "MRT", "value": "3.6 min"}
{"Structure (SMILES)": "CC(=O)N[C@H](CCCCNC(=O)C(C)F)C(=O)N[C@@H](CS)C(=O)N[C@@H](CS)C(=O)N[C@@H](CCC(=O)O)C(=O)N[C@@H](Cc1c[nH]cn1)C(=O)N[C@H](Cc1ccccc1)C(=O)N[C@@H](CCCNC(=N)N)C(=O)N[C@@H](Cc1c[nH]c2ccccc12)C(=O)N[C@@H](CS)C(=O)N[C@@H](CCCNC(=N)N)C(=O)N1CCC[C@H]1C(=O)N[C@H](C(N)=O)C(C)C (stereo partly drawn) [fluorine-18 labelled]", "system": "Foxn1 nude mouse A375M xenograft, tumour", "setting": "intravenous, 2 h", "measurement": "tissue uptake", "value": "0.84 ± 0.39 %ID/g"}
{"Structure (SMILES)": "CC(C)[C@H]1C(=O)N[C@@H](CCCN=C(N)N)C(=O)NCC(=O)N[C@@H](CC(=O)O)C(=O)N[C@H](Cc2ccccc2)C(=O)N1C", "test": "radio-HPLC", "system": "female cynomolgus monkey, urine", "setting": "intravenous, dose not given", "measurement": "urinary excretion of unchanged drug", "value": "~50%"}
{"Structure (SMILES)": "NC(=O)c1nc(F)c[nH]c1=O", "test": "UV-Vis spectrophotometry", "system": "supercritical CO2", "setting": "120 min, 338 K, 15 MPa, 555.23 kg/m^3", "measurement": "solubility", "value": "74 µg/mL"}
{"Structure (SMILES)": "CCCCCCCCCCCC[N+](C)(C)Cc1ccccc1", "test": "substrate depletion", "system": "human liver microsomes", "setting": "0.5 µM, 0 to 3 h, 37 °C, added: NADPH", "measurement": "intrinsic clearance", "value": "1.09 mL/h/mg protein"}
{"Structure (SMILES)": "CN[C@@](C)(C[18F])C(=O)O", "system": "SCID mouse DU-145 xenograft, blood", "setting": "60 min, post injection", "measurement": "tissue uptake", "value": "0.9 ± 0.1 %ID/g"}
{"Structure (SMILES)": "CNC(=O)c1ccc(-c2cnn3ccc(C(=O)N(C)c4ccc(Cl)c(C(=O)OC)c4)cc23)cc1", "system": "Wistar rats, both sexes, plasma", "setting": "oral, 50 mg/kg/day, day 14, 2-week toxicology study", "measurement": "AUC(0-8 h)", "value": "2.77 ng·h/mL"}
{"Structure (SMILES)": "CC1N=C(c2ccccc2F)c2cc(N(C)c3ccccc3)ccc2NC1=O (stereo not drawn)", "test": "shake flask", "system": "PBS", "setting": "24 h, pH 7.4", "measurement": "solubility", "value": "< 1 µM"}
{"Structure (SMILES)": "CC(=O)N[C@H](C(=O)N[C@@H](CO)C(=O)N[C@@H](CCCNC(=N)N)C(=O)N[C@@H](CCCNC(=N)N)C(=O)N[C@@H](CCCNC(=N)N)C(N)=O)C(C)C", "system": "healthy adults", "setting": "intravenous infusion, 1 mg/kg every 6 h, over 30 min, maximum among subjects", "scale": "baseline: dose 2 over dose 1", "measurement": "AUC(tau) accumulation ratio", "value": 1.4}
{"Structure (SMILES)": "CS(=O)(=O)CCCn1c(Cn2c(=O)n(CC(F)(F)F)c3ccncc32)cc2cc(Cl)ccc21", "system": "RSV-infected infants", "setting": "concentration not given, mid-high dose cohort", "measurement": "patients with low MCH", "value": "25%"}
{"Structure (SMILES)": "CC[C@@]1(O)C(=O)OCc2c1cc1n(c2=O)Cc2cc3c(CN(C)C)c(O)ccc3nc2-1", "system": "human patients, plasma", "setting": "oral, 8 mg weekly, geometric mean, added: pazopanib 800 mg daily", "measurement": "AUC(0-inf)", "value": "254 ng·h/mL"}
